Assay results from different studies.
Numbered parts are unrelated; each lists some results of a single study. Positions count from the first letter of the parent shown.
Sequence of UniProt Q02763 (whole entry, looked up): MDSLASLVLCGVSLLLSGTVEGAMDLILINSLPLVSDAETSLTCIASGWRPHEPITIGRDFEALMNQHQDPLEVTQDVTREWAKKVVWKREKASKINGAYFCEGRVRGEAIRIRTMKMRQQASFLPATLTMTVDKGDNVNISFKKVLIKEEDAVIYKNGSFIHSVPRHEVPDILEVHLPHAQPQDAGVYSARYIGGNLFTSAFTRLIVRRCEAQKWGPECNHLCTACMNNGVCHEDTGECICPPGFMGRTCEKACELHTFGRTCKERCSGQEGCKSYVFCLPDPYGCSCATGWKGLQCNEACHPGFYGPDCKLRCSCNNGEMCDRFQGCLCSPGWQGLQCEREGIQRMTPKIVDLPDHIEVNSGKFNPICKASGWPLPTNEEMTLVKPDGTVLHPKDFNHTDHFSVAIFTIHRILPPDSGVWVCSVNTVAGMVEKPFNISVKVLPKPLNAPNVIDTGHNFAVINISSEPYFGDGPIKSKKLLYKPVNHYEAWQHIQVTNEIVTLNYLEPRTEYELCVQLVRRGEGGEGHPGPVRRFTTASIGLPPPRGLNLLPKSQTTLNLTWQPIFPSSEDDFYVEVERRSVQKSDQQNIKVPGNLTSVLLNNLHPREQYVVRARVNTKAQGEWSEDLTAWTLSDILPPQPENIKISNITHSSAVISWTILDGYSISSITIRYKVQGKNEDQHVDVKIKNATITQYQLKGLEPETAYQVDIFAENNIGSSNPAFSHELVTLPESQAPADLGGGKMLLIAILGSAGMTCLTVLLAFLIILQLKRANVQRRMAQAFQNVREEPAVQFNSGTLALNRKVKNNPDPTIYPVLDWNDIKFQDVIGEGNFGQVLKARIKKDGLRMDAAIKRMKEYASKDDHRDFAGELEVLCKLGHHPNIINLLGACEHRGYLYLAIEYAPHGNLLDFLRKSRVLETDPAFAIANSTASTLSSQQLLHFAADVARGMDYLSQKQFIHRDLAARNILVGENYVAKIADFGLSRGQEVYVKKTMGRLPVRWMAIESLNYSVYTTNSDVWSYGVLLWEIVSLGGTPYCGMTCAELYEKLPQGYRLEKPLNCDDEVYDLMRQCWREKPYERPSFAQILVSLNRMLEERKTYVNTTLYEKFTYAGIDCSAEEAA
Sequence of UniProt O15197 (whole entry, looked up): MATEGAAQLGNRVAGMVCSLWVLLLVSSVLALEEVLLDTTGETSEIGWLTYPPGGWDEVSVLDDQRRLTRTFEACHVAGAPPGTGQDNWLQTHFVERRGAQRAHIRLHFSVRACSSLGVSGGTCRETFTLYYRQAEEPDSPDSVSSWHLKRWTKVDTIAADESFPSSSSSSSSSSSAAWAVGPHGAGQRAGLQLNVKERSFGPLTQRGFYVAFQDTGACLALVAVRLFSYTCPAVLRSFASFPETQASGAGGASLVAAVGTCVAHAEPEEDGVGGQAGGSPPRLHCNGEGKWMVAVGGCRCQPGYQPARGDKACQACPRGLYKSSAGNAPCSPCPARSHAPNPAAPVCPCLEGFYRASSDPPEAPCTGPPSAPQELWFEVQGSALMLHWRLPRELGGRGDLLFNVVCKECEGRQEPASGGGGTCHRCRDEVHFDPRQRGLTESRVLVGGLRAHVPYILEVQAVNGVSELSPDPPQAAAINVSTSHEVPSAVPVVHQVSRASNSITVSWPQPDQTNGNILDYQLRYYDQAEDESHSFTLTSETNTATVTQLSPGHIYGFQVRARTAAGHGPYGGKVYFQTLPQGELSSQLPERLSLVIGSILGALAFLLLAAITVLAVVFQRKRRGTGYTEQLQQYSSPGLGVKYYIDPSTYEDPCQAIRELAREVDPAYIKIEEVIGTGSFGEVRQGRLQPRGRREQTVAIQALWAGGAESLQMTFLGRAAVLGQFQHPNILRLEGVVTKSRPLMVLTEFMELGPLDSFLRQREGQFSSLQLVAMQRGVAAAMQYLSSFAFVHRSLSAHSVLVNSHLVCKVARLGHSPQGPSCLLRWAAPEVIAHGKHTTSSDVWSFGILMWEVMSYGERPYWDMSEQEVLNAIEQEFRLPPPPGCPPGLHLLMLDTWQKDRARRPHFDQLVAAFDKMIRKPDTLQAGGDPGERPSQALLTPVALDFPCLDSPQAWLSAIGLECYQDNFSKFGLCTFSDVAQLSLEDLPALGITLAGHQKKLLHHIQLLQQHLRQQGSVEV
Sequence of UniProt Q16659 (whole entry, looked up): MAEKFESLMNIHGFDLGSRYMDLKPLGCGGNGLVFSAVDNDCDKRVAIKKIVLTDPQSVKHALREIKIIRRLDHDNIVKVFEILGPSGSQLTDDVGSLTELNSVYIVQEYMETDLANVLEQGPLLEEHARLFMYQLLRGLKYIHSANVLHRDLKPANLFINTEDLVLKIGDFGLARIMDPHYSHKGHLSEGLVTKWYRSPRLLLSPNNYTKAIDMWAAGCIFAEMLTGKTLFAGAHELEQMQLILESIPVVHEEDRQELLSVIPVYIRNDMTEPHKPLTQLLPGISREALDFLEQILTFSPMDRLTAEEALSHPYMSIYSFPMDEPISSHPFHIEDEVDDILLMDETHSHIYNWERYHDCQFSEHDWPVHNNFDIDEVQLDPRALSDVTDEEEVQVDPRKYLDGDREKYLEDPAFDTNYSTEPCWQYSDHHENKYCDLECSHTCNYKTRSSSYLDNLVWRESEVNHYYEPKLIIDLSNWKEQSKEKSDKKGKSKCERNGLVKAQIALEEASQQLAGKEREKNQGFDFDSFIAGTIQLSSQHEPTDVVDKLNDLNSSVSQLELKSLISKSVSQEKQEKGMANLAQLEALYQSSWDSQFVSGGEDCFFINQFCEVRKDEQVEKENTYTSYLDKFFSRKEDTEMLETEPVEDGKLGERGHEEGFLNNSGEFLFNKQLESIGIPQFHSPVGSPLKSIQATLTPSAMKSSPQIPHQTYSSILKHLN

Block 1
Target: ABI1, truncated, D143A, DHFR fusion (Arabidopsis thaliana)
Technique: DHFR PCA, deep sequencing
Matrix: yeast
Notes: methotrexate growth selection, single substitutions
Together with: (+)-ABA 1.4 µM
Relative to: wild-type fitted maximum
Direction: higher = stronger binding
Endpoint: relative binding score
Parent: PYL1, truncated, DHFR fusion (Arabidopsis thaliana); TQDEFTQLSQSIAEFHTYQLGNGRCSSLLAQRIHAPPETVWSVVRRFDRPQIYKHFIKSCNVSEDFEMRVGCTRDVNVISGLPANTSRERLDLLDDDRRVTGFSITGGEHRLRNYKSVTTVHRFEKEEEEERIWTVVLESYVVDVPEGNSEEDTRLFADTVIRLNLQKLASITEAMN; partner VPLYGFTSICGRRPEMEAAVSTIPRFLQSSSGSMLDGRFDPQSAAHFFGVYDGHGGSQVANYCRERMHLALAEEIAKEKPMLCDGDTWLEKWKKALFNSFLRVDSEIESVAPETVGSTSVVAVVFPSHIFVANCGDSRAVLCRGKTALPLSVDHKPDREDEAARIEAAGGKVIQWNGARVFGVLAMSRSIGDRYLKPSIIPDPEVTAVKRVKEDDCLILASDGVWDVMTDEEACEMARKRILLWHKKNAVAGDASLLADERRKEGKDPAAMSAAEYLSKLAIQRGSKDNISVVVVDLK
S9K: 77.7%
V118A: 15%
F15V: 2.76%
A35N: -20.1%
E152M: 30.6%
Q2A: 73.9%
S27L: 4.35%
E109I: 10.1%

Block 2
SMILES: COc1cccc(CNC(=O)c2nc3scc(COCc4ccc(C(=O)O)cc4)c3c(=O)[nH]2)c1
Observed: cell-free assay
Technique: competition with immobilised ligand
Tested at: 1 µM
Endpoint: remaining binding
Mitogen-activated protein kinase 6 (MAPK6, Homo sapiens, UniProt Q16659): 99.9%
Ephrin type-B receptor 6 (EPHB6, Homo sapiens, UniProt O15197): 100%
Angiopoietin-1 receptor (TEK, Homo sapiens, UniProt Q02763): 100%

Block 3
Target: Aurora kinase B (AURKB, Homo sapiens, UniProt Q96GD4)
Sequence of UniProt Q96GD4 (whole entry, looked up): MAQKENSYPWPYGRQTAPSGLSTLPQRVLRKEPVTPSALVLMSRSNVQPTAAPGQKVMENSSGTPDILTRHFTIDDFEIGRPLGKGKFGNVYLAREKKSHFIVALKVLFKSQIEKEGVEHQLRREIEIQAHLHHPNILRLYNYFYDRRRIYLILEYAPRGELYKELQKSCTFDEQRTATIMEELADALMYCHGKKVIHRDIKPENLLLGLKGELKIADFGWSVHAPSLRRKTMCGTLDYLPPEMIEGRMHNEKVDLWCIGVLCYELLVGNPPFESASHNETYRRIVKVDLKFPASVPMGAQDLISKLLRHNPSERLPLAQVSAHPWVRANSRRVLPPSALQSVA
Observed: enzyme activity
Action: inhibitor
Tested at: 0.5 µM
Relative to: control
Endpoint: remaining activity
CO[C@H]1C[C@@H]2CC[C@@H](C)[C@@](O)(O2)C(=O)C(=O)N2CCCC[C@H]2C(=O)O[C@H]([C@H](C)C[C@@H]2CC[C@@H](O)[C@H](OC)C2)CC(=O)[C@H](C)/C=C(\C)[C@@H](O)[C@@H](OC)C(=O)[C@H](C)C[C@H](C)/C=C/C=C/C=C/1C: 95.2%
CC(C)[C@H](CO)Nc1nc(Nc2cc(N)cc(Cl)c2)c2ncn(C(C)C)c2n1: 87.8%
O=C(Nc1cccc(Nc2cc(Nc3cccc(C(F)(F)F)c3)ncn2)c1)C1CC1: 98.9%
Nc1ccc2ncnc(NCCc3ccc(Oc4ccccc4)cc3)c2c1: 99.1%
O=C1NC(=O)C(c2cn(CCCn3ccnc3)c3ccccc23)=C1Nc1ccccc1: 95.4%
COc1ccc(CNC(=O)Nc2ncc([N+](=O)[O-])s2)cc1: 97.1%
OCC(O)CCON=C1C(c2c(O)[nH]c3ccccc23)=Nc2ccccc21 (stereo not drawn): 27.4%
COc1ccc(C(=O)Nc2sc3c(c2C(N)=O)CCCC3)cc1OC: 96.2%
O=C(CCCc1ccc(-c2ccccc2F)cc1)Nc1ccc(O)cc1: 106%
COc1cc2ncnc(Nc3ccc(Oc4ccccc4)cc3)c2cc1OC: 50.9%
CCOC(=O)c1c(C)[nH]c(/C=C2\C(=O)Nc3ccccc32)c1C: 67.3%
CN(C)c1ccc(C=C2C(=O)Nc3ccccc32)cc1: 61.4%
Nc1[nH]nc2nc3ccccc3nc12: 101%
N#CC(C#N)=C(N)/C(C#N)=C/c1ccc(O)cc1: 91%

Block 4
Target: PABPC1L2, full length, GST fusion (mouse, UniProt A0ABA7IW68)
Technique: RNAcompete
Molecule type: RNA
Matrix: in vitro
Tested at: 20 nM
Notes: 7-mer, probes averaged, single round
Relative to: mean of 7-mers
Direction: higher = stronger binding
Endpoint: 7-mer Z-score
Residues (chain): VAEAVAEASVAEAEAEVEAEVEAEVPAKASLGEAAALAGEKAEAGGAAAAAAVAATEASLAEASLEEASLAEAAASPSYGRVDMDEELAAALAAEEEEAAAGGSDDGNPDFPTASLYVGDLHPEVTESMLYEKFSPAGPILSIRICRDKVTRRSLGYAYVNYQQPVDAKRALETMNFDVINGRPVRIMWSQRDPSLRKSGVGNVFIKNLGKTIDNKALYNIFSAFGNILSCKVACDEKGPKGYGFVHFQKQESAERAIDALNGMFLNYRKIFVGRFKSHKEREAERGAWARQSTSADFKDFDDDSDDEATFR
UUAAGAU: -0.00652
AUGGAGU: -0.119
CCAACUU: -0.293
UAUCGUU: -0.378
UAAAUUC: 0.7
AUCAACG: -0.217
UAGAUAA: 0.245
AAGGAUC: 0.126

Some of these lines once more (block 4):
CCAACUU: -0.293
AUCAACG: -0.217
UAAAUUC: 0.7
UAGAUAA: 0.245
AUGGAGU: -0.119
